# Measurements gathered from unrelated publications.
# Organism: Cryptococcus neoformans
Structure (SMILES),test,system,setting,endpoint,value
C[C@@H](c1ccn(Cc2c(F)cc(Cl)cc2F)n1)[C@](O)(Cn1cnnn1)c1ccc(F)cc1F,"growth, broth microdilution",H99,"72 h, 30 °C, ≥50% inhibition",MIC,< 0.008 µg/mL
CCCCCCCCCC1CC2CCCC3CC(CCCCCCCCC)NC(=N1)N23 (stereo not drawn),fungal growth,ATCC 90113,,MFC,2.9 µM
CCn1ccc([C@H](C)[C@](O)(Cn2cnnn2)c2ccc(F)cc2F)n1,"growth, broth microdilution",H99,"72 h, 30 °C, ≥50% inhibition",MIC,4 µg/mL
O=c1c(O)cccc(S(=O)(=O)c2ccccc2)c1O,"microbial growth, broth dilution",,13 h,MIC80,50 µM
CCCCCCCCCC1CC2CCC3CC(CCCCCCCCC)NC(=N1)N23 (stereo not drawn),microbial growth,ATCC90113,,IC50,2110 nM
Cc1ccc(S(=O)(=O)c2cccc(O)c(=O)c2O)cc1,"microbial growth, broth dilution",,13 h,MIC80,38 µM
CCCCCCCCCCCCCNCC(=O)N(CC(=O)N(CCCCN)CC(=O)N(CCN)CC(=O)N(CC(N)=O)Cc1cccs1)Cc1cccs1,broth microdilution,,"72 h, 35 °C",MIC,1.56 to 3.13 µg/mL
C[C@@H](c1ccn(Cc2ccc(Cl)cc2Cl)n1)[C@](O)(Cn1cnnn1)c1ccc(F)cc1F,"growth, broth microdilution",H99,"72 h, 30 °C, ≥50% inhibition",MIC,< 0.008 µg/mL
C/C=C/CNC(=N)NCCCCCCCCN1CCCc2ccc(OC(F)(F)F)cc2COc2ccccc2CNC(=N)NC1=O,"microbial growth, broth dilution",,24 h,MIC90,4 µg/mL
C[C@@H](c1ccn(Cc2ccc(OC(F)(F)F)cc2)n1)[C@](O)(Cn1cnnn1)c1ccc(F)cc1F,"growth, broth microdilution",H99,"72 h, 30 °C, ≥50% inhibition",MIC,< 0.008 µg/mL
CC(C)S(=O)(=O)c1cccc(O)c(=O)c1O,"microbial growth, broth dilution",,13 h,MIC80,50 µM
CCCCCC1CC2CCCC3CC(C)N=C(N1)N32 (stereo not drawn),microbial growth,ATCC90113,,IC50,2120 nM
CCCCS(=O)(=O)c1cccc(O)c(=O)c1O,"microbial growth, broth dilution",,13 h,MIC80,50 µM
C[C@@H](c1ccn(Cc2cccc(C(F)(F)F)c2)n1)[C@](O)(Cn1cnnn1)c1ccc(F)cc1F,"growth, broth microdilution",H99,"72 h, 30 °C, ≥50% inhibition",MIC,< 0.008 µg/mL
C/C=C/CNC(=N)NCCCCCCCCN1CCCc2cc(F)ccc2COc2ccccc2CNC(=N)NC1=O,"microbial growth, broth dilution",,24 h,MIC90,3.12 µg/mL
C[C@@H](c1ccn(Cc2ccc(F)cc2F)n1)[C@](O)(Cn1cnnn1)c1ccc(F)cc1F,"growth, broth microdilution",H99,"72 h, 30 °C, ≥50% inhibition",MIC,0.125 µg/mL
O=c1c(O)cccc(SCc2ccccc2)c1O,"microbial growth, broth dilution",,13 h,MIC80,0.55 µM
C[C@@H](c1ccn(Cc2cc(F)c(F)c(F)c2)n1)[C@](O)(Cn1cnnn1)c1ccc(F)cc1F,"growth, broth microdilution",H99,"72 h, 30 °C, ≥50% inhibition",MIC,0.0625 µg/mL
CSc1cccc(O)c(=O)c1O,"microbial growth, broth dilution",,13 h,MIC80,28 µM
C[C@@H](c1ccn(Cc2ccc(I)cc2)n1)[C@](O)(Cn1cnnn1)c1ccc(F)cc1F,"growth, broth microdilution",H99,"72 h, 30 °C, ≥50% inhibition",MIC,< 0.008 µg/mL
CCCCCCSc1cccc(O)c(=O)c1O,"microbial growth, broth dilution",,13 h,MIC80,1.7 µM
C/C=C/CNC(=N)NCCCCCCCCN1CCCc2ccc(C)cc2COc2ccccc2CNC(=N)NC1=O,"microbial growth, broth dilution",,24 h,MIC90,4 µg/mL
CCCCCCS(=O)(=O)c1ccc(S(=O)(=O)CCCCCC)c(O)c(=O)c1O,"microbial growth, broth dilution",,13 h,MIC80,50 µM
CN(Cc1cc(C2CC2)on1)C(=O)c1cccc(-c2ccc3c(c2)CCO3)c1,,H99,with: rapamycin,FIC index,0.5

# Excerpt of the above:
Structure (SMILES),test,system,setting,endpoint,value
CCCCS(=O)(=O)c1cccc(O)c(=O)c1O,"microbial growth, broth dilution",,13 h,MIC80,50 µM
C[C@@H](c1ccn(Cc2cccc(C(F)(F)F)c2)n1)[C@](O)(Cn1cnnn1)c1ccc(F)cc1F,"growth, broth microdilution",H99,"72 h, 30 °C, ≥50% inhibition",MIC,< 0.008 µg/mL
